Experimental data pooled from the literature.
Values joined by “and” are separate records of one study, mostly repeats; a detail may differ. ± marks the error that the study gave.

Compound | assay | test system | conditions | how to read | quantity | value
COc1cc2c(cc1OC)CN(CCc1ccc(NC(=O)c3cccc4c(=O)c5cccc(OC)c5[nH]c34)cc1)CC2 | – | CD-1 mouse, male, plasma | intraperitoneal, 1 mg/kg | – | AUC(0-inf) | 1340 ng·h/mL
CC(=O)c1c(C)c2cnc(Nc3ccc(C4CCN(CCS(C)(=O)=O)CC4)cn3)nc2n(C2CCCC2)c1=O | – | HR+/HER2- advanced breast cancer patients | oral, 100 mg bid, all grades, monotherapy arm | – | patients with anaemia | 40%
N#C[C@@]1(n2ccc(N)nc2=O)O[C@H](CO)[C@@H](O)[C@H]1O | – | CD-1 mouse, plasma | oral, 30 mg/kg | – | AUC(0-inf) | 34900 ng·h/mL
O=C(O)CCCOc1ccc(F)cc1-c1cc(-c2ccccc2C(F)(F)F)n(-c2ccccc2)n1 | – | female Crl:CD(SD) rats, salivary glands | intravenous, 25 µg/kg, 1 d | – | relative organ weight | 0.2 ± 0.01 g%
COc1cc2c(Oc3ccc4[nH]c(C)cc4c3F)ccnc2cc1OCC1(N)CC1 | – | paediatric refractory sarcoma patients | 12 mg | – | sinus bradycardia incidence | 0%
O=C(Nc1ccccc1)C1CCN(C(=O)Oc2cccnc2)CC1 | adverse event reporting | healthy women | oral, 20 mg, 7 days | – | subjects with dry mouth | 14.3%
CC(C)Nc1ccnc(Nc2cccc(-c3cccnc3)c2)n1 | measured: BUN | mouse, blood | intraperitoneal, 3 mg/kg | – | blood chemistry | 16.8 mg/dL
CCCCCOc1ccc(-c2ccc(-c3ccc(C(=O)N[C@H]4C[C@@H](O)[C@@H](OCC[N+](C)(C)C)NC(=O)[C@@H]5[C@@H](O)[C@@H](C)CN5C(=O)[C@H]([C@@H](C)O)NC(=O)[C@H]([C@H](O)[C@@H](O)c5ccc(O)cc5)NC(=O)[C@@H]5C[C@@H](O)CN5C(=O)[C@H]([C@@H](C)O)NC4=O)cc3)cc2)cc1 | – | adult ICU patients, mITT, serum | dose not given, Baseline | – | alanine aminotransferase | 25.5 U/L
COc1ncccc1-c1cnn2ccc(N3CCN(C(=O)OC(C)C)CC3)nc12 | – | mouse nerve ligation model, brain | oral, 30 mg/kg, 120 min after last dose, repeat dosing day 5 | – | drug concentration | 19 µM
O=C1Nc2cc3[nH]nc(-c4ccncc4)c3cc2CN1Cc1ccccc1 | measured: respiratory tract infection | patients with advanced solid tumours | intravenous, dose not given | – | patients with grade ≥3 TEAE | 7%
Cn1cc(-c2nc(N[C@@H]3CCCC[C@@H]3N)c(F)c3c2C(=O)NC3)cn1 | epistaxis | patients with relapsed or refractory AML | oral, 140 mg once daily | – | adverse events | 20%
CCc1ccc(CC/C=C/c2ccc3c(c2)C(=O)CC3)cc1 | – | Sprague-Dawley rat, male | oral, 120 mg/kg/day, 14 days | – | Eosinophil percentage | 0.7%
CNC(=O)c1cc(Oc2ccc(NC(=O)Nc3cc(C(C)(C)C)nn3-c3ccc4ncccc4c3)c(F)c2)ccn1 | ejection fraction decreased, NCI CTC v3.0 | human patients | oral, all dose levels | – | related SAE | 2%
NCCCC[C@@H]1NC(=O)[C@@H](Cc2c[nH]c3ccccc23)NC(=O)[C@H](c2ccccc2)NC(=O)[C@@H]2C[C@@H](OC(=O)NCCN)CN2C(=O)[C@H](Cc2ccccc2)NC(=O)[C@H](Cc2ccc(OCc3ccccc3)cc2)NC1=O | – | healthy volunteers | subcutaneous, 600 µg twice daily, day 5, 0.25 h | – | QTcI change from baseline | -3.9 ms
CC[C@H](C)[C@H](NC(=O)[C@H](CCCCN)NC(=O)[C@H](CCC(=O)O)NC(=O)[C@H](CCCCN)NC(=O)[C@H](CO)NC(=O)[C@H](CCCCN)NC(=O)[C@H](CCCNC(=N)N)NC(=O)[C@H](Cc1ccccc1)NC(=O)[C@H](Cc1ccccc1)NC(=O)[C@H](CC(=O)O)NC(=O)CNC(=O)[C@H](CC(C)C)NC(=O)[C@@H](N)CC(C)C)C(=O)NCC(=O)N[C@@H](CCCCN)C(=O)N[C@@H](CCC(=O)O)C(=O)N[C@@H](Cc1ccccc1)C(=O)N[C@@H](CCCCN)C(=O)N[C@@H](CCCNC(=N)N)C(=O)N[C@H](C(=O)N[C@H](C(=O)N[C@@H](CCC(N)=O)C(=O)N[C@@H](CCCNC(=N)N)C(=O)N[C@H](C(=O)N[C@@H](CCCCN)C(=O)N[C@@H](CC(=O)O)C(=O)N[C@@H](Cc1ccccc1)C(=O)N[C@@H](CC(C)C)C(=O)N[C@@H](CCCNC(=N)N)C(=O)N[C@@H](CC(N)=O)C(=O)N[C@@H](CC(C)C)C(=O)N[C@H](C(=O)N1CCC[C@H]1C(=O)N[C@@H](CCCNC(=N)N)C(=O)N[C@H](C(=O)N[C@@H](CCC(=O)O)C(=O)N[C@@H](CO)C(=O)O)[C@@H](C)O)C(C)C)[C@@H](C)CC)C(C)C)[C@@H](C)CC | LC-MS | 50% pooled human serum in Tris-HCl buffer | 40 µM, 1 h, pH 7.5, 37 °C | baseline: 0 h value | remaining intact peptide | 4.07%
CO[C@H]1C[C@@H]2CC[C@@H](C)[C@@](O)(O2)C(=O)C(=O)N2CCCC[C@H]2C(=O)O[C@H]([C@H](C)C[C@@H]2CC[C@@H](OC(=O)NCCOCCOCCOCCOCCOCCOCCOCCOCCC(=O)N3CCc4cc(Cn5nc(-c6ccc7oc(N)nc7c6)c6c(N)ncnc65)ccc4C3)[C@H](OC)C2)C[C@@H](O)[C@H](C)/C=C(\C)[C@@H](O)[C@@H](OC)C(=O)[C@H](C)C[C@H](C)/C=C/C=C/C=C/1C | phase 1 dose escalation, measured: diarrhoea | advanced solid tumour patients | intravenous, 10 mg weekly, grade ≥3 | – | TRAE incidence | 0%
CCCCCCCCCCCCCCCC(=O)N[C@@H](CCC(=O)NCCCC[C@H](NC(=O)[C@H](CC(=O)O)NC(=O)[C@H](CO)NC(=O)[C@@H](NC(=O)[C@H](Cc1ccccc1)NC(=O)[C@@H](NC(=O)CNC(=O)[C@H](CCC(N)=O)NC(=O)[C@H](CO)NC(=O)[C@@H](N)Cc1c[nH]cn1)[C@@H](C)O)[C@@H](C)O)C(=O)N[C@@H](CO)C(=O)N[C@@H](CCC(=O)O)C(=O)N[C@@H](Cc1ccc(O)cc1)C(=O)N[C@@H](CC(C)C)C(=O)N[C@@H](CC(=O)O)C(=O)N[C@@H](CO)C(=O)N[C@@H](CCC(=O)O)C(=O)N[C@@H](CCCNC(=N)N)C(=O)N[C@@H](C)C(=O)N[C@@H](CCCNC(=N)N)C(=O)N[C@@H](CC(=O)O)C(=O)N[C@@H](Cc1ccccc1)C(=O)N[C@H](C(=O)N[C@@H](C)C(=O)N[C@@H](Cc1c[nH]c2ccccc12)C(=O)N[C@@H](CC(C)C)C(=O)N[C@@H](CCC(=O)O)C(=O)N[C@@H](C)C(=O)NCC(=O)NCC(=O)O)C(C)C)C(=O)O | measured: Flatulence | humans CrCl below 20 mL/min | subcutaneous, 100 µg single dose | – | treatment-related adverse events | 0%
C[C@@H](NC(=O)N1C(=O)[C@H](Cc2ccnc(N)c2)[C@H]1C(=O)O)C1CCCCC1 | – | healthy adult Chinese volunteers | continuous intravenous infusion, 2.25 mg/kg/h, 5-day infusion, CTCAE 5.0 grading | – | incidence of decreased hemoglobin | 0%

Compound | assay | test system | conditions | how to read | quantity | value
CC(C)c1nc(N(C)S(C)(=O)=O)nc(-c2ccc(F)cc2)c1/C=C/[C@@H](O)C[C@@H](O)CC(=O)O | – | healthy human subjects | oral, dose not given, study CL-0537 safety set | – | incidence of Laceration | 3.6%
COc1cccc(Oc2ccccc2NC(=O)CNC(=O)c2cccc3ccccc23)c1 | – | esterase-deficient SCID mice, male | oral, 15 mg/kg/day, 14 days, toxicity study | – | blood glucose | 205 mg/dL and 304 mg/dL and 177 mg/dL
Oc1ccc(Cl)c(-c2ccc(Cl)cc2Cl)c1Cl | enantioselective gas chromatography | racemized sample | column temperature 160 °C | – | enantiomeric fraction | 0.51
Cn1cncc1-c1c(F)cncc1NC(=O)c1c(N)nn2cc(F)cnc12 | – | human patients | oral, 220 mg once daily | – | grade ≥3 neutrophil decrease incidence | 0%
Cn1ncc(-c2nc(N[C@H]3CC[C@H](N)CC3)ncc2Cl)c1CC1CC1 | phase I dose escalation | human patients | dose not given, grade 3 or higher TEAE | – | febrile neutropenia incidence | 33%
COc1ccc([C@@H](O)c2cc(-c3ncnc4cc(N5CCOCC5)ccc34)c(F)cc2Cl)nn1 | – | patients, advanced solid tumours | oral, 300 mg twice daily, treatment-emergent, together with: avelumab | baseline: patients | hypomagnesaemia incidence | 4%
CC(C)[C@@H]1NC(=O)CNC(=O)[C@H](CC(N)=O)NC(=O)[C@H](CCCNC(=N)N)NC(=O)[C@H](Cc2ccc(O)cc2)NC(=O)[C@H](C(C)C)NC(=O)[C@@H](NC(=O)[C@@H](NC(=O)[C@H](CC(N)=O)NC(=O)[C@H](Cc2c[nH]c3ccccc23)NC(=O)[C@H](C)NC(=O)[C@H](Cc2ccccc2)NC(=O)CN)C(C)C)CSSC[C@@H](C(=O)N[C@@H](Cc2c[nH]cn2)C(=O)N[C@@H](CCCNC(=N)N)C(=O)N[C@@H](CCCNC(=N)N)C(=O)N[C@@H](C)C(=O)N[C@@H](CC(N)=O)C(N)=O)NC(=O)[C@H](C(C)C)NC(=O)[C@H](CCCNC(=N)N)NC1=O | circular dichroism, measured: Parallel | PBS | 80 µM, pH 7.4 | – | secondary structure content | 3%
CN[C@H](CC(C)C)C(=O)N[C@H]1C(=O)N[C@@H](CC(N)=O)C(=O)N[C@H]2C(=O)N[C@H]3C(=O)N[C@H](C(=O)N[C@H](C(=O)O)c4cc(O)cc(O)c4-c4cc3ccc4O)[C@H](O)c3ccc(c(Cl)c3)Oc3cc2cc(c3O[C@@H]2O[C@H](CO)[C@@H](O)[C@H](O)[C@H]2O[C@H]2C[C@](C)(N)[C@H](O)[C@H](C)O2)Oc2ccc(cc2Cl)[C@H]1O | – | Sprague Dawley rat, both sexes | intraperitoneal, 200 mg/kg/day, 10 days | baseline: baseline | serum creatinine | increased
CN(C(=O)n1cnc(-c2ccc[n+]([O-])c2)c1)C1CCCCC1 | – | Wistar rat, midbrain | oral, 10 mg/kg/day, 72 h, repeated 5 days | – | concentration | 13.8 ± 0.8 ng/g
Oc1ccc(CSCc2ccc(O)cc2)cc1 | – | ICR mice male | oral, 1500 mg/kg, day 8, acute toxicity | baseline: day 1 | body weight gain | 4.15 ± 2.89 g
CN(C)CCCN1c2ccccc2Sc2ccc(Cl)cc21 | – | human liver microsomes | concentration not given | – | microsomal binding | 92.2%
C[C@]1(CO)Cc2ncn(-c3ccc(C#N)c(Cl)c3)c2C(=O)O1 | – | human, Chinese | 60 mg single dose | – | subjects with drug-related dizziness | 0%
O=S(=O)(Nc1ccccc1)c1ccc(NC(=S)Nc2ccccc2)cc1 | – | mouse, male, blood | oral, 20 mg/kg daily, 14 days | – | mean corpuscular volume | 47.5 fL
C=CC(=O)Nc1cc(Nc2nccc(Nc3cc(Cl)c(F)cc3C(C)(C)O)n2)c(OC)cc1N1CC[C@@H](N(C)C)C1 | – | human patients | oral, 200 mg, treatment-emergent adverse events | – | patients with pneumonia | 6.3%
[2H]C([2H])([18F])[C@]([2H])(N)C(=O)O | PET | athymic nude mice, U-87 MG, muscle | dose not given, 30 min post-injection | – | tissue uptake | 1.47 ± 0.25 %ID/cc
C=CCNc1c(O)cc2c(O)c1C[C@@H](C)C[C@H](OC)[C@H](O)[C@@H](C)/C=C(\C)[C@H](OC(N)=O)[C@@H](OC)/C=C\C=C(/C)C(=O)N2 | – | unresectable or metastatic STS, GIST, other | intravenous, 150 mg/m^2 | – | patients with fatigue TEAE | 100%
COc1ccc(C[C@@H]2NC(=O)[C@H]([C@@H](C)O)NC(=O)[C@@H]3[C@@H]4CCN3C(=O)[C@@H]3Cc5cn(c6ccc(F)cc56)CCCCCCN(Cc5ccc(cc5)CCNC(=O)[C@]5(C)CCCN5C2=O)C(=O)CCC(=O)N[C@@H](C)C(=O)N[C@H](CNC(=O)CCCCC[N+](C)(C)C)C(=O)N[C@@H](Cc2cccc(c2)CNC(=O)CO4)C(=O)N3)cc1 | measured: limb discomfort | human | dose not given | – | participants with adverse event | 3.2%
